Assay results collected from several papers.
Every numbered part comes from another study and shows a few of its results, in no order.

Series 1
Target: RNA binding protein fox-1 homolog 2, RRM domain, GST-SBP tag (RBFOX2, Homo sapiens, UniProt O43251-10, residues 100-194)
Method: RNA Bind-n-Seq
Molecule type: RNA
Matrix: in vitro
Tested at: 365 nM
Setting: natural RNA segment, single round, ends assumed
Reference: no-protein control
Reading: higher = stronger binding
Constant ends, left off below: GGGAGUUCUACAGUCCGACGAUC … UGGAAUUCUCGGGUGCCAA
Construct (chain): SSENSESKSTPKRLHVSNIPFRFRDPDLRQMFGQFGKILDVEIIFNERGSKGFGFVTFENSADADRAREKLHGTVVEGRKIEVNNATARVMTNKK
For `CUCUAGACCAAGGCAGGCAGCCCCGACAUCUGCUUCCUCUAUCGCCCAAUGCAAAAUCGAUGAAAUGGGGAGUUCUCUGGGCCAGGCCACAUUCACAUUCCCCUCCCCCU`, “RBNS enrichment (R)” read 0.419.
`UCCCUAACAUUUUUUUCCCCAAACUUGGGUCUGGAUGUAGAUUCUCACCCUAUGGCCUGAGUCCAAUCCCUAGAACUGUGGUUUCCUCCAGUGUGACUUGUCCUGAUCAG`: “RBNS enrichment (R)” 1.02.
`GCUUCUUUGUAGCAGGGUAAAUCGUCCUGUCAAAGGGAGUUGCUGGAAUAAUGGGCCAAACAUCUGGUCUUGCAUUGAAAUAGCAUUUCUUUGGGAUUGUGAAUAGAAUG`: “RBNS enrichment (R)” 0.307.
For `UGGCCCACAGCUCCAUGGACUUCUGAGCCGACAGUCUUCCCUUCUCUCCAAGAGGCCUCAGUCCCCAAGACUGCCACCAGUCUACACAUACAGCAGCCCCCUGGACAGAA`, “RBNS enrichment (R)” read 0.302.
`UAUAGAGACUAGGAGUUAAGGGGCCUGCCUAAGAUUGCAGUGAUAAAGAACUGAACCCUAAAUCAGCUCCCACUAAUGAAACCCUGCUUUCCUUGUAUCUUUUAAACUCA` — result for “RBNS enrichment (R)”: 0.677.
`GGCAUUUUACCCUUGCAGUUUUACUAAAACACUGAAAAAUAUUCCAAGCUUCAUAUUAACCCUACCUGUCAACGUAACGAUUUCAUGAACGUUAUUAUAUUGUCGAAUUC` — result for “RBNS enrichment (R)”: 0.354.
`GCCAGGCAUGGAGGCACAUGCCUAUAAUCCCAGCUACUCGGGAGGCUGAGGUAGGAGAAUCGCUUGAAUCCGGGAGCUGGAGGUUGCAGUGAGCCAAGAUCGCACCAUUG`: “RBNS enrichment (R)” 1.4.
`GGUAUUUUCGAACAAUAGGAAACUAUUUUUUCUCCUUUUUUUACAGUUUUAGUACGUAUCUGGCUUGUAUGUGGAAGACUAAAAAGUUGAUUUGCUAAAUGUGGUCUUUG` — result for “RBNS enrichment (R)”: 0.599.

Series 2
Target: Interferon regulatory factor 3, full length, phosphomimetic (IRF3, Homo sapiens, UniProt Q14653, residues 1-427, S386D/S396D/S398D/S402D/T404D/S405D)
Method: protein-binding microarray
Molecule type: double-stranded DNA, one strand shown
Matrix: in vitro
Tested at: 2540 nM top
Setting: 60-bp whole probe
Together with: salmon DNA 0.4 mg/ml
Reference: random background probes
Reading: higher = stronger binding
Constant ends, left off below: GCCTAGCAC … GTCTTGATTCGCTTGACGCTGCTG
Target sequence (chain): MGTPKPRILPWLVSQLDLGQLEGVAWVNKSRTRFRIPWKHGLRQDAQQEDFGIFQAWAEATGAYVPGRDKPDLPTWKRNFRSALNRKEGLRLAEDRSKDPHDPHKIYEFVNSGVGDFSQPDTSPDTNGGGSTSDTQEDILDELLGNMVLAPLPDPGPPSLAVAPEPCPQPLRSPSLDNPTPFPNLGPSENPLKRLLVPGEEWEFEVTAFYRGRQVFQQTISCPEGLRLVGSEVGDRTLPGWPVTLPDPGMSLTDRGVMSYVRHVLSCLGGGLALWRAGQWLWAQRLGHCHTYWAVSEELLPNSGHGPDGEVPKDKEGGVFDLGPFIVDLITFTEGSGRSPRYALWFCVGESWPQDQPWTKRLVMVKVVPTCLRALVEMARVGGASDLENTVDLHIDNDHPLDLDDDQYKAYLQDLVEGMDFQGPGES
`TTAGGACTGGCCACTGGGTTAGTGCTA` — result for “fitted relative affinity”: -1.23 z-score.
For `GACGGTATCGTTCTCGGGACGTGCTAG`, “fitted relative affinity” read 4.43 z-score.
Under “fitted relative affinity”, `GACGATATCAGACTGAAGACGTGCTAG` is recorded as 0.384 z-score.
Under “fitted relative affinity”, `TTAGGTTTCGACACTGGGTTGGTGCTA` is recorded as 2.39 z-score.
`GACGGTTTCCTGCTCCTGACGTGCTAG` — result for “fitted relative affinity”: 3.67 z-score.
`TTAGGTTTCGGTCTCGGTTAGTGCTAG` — result for “fitted relative affinity”: 8.81 z-score.
`GACGGTGTCGGTTTCGGGACGTGCTAG` — result for “fitted relative affinity”: 5.52 z-score.
`TTTCCACTTTCTTTTGCTTGGTGCTAG`: “fitted relative affinity” 5.74 z-score.
For `GACAGTTCCCTTTTCCTGACGTGCTAG`, “fitted relative affinity” read 5.85 z-score.
`TCAAGTATTTATCTGCAACTGTGCTAG` — result for “fitted relative affinity”: -0.18 z-score.
`GCCGGACTGCTTCTCCTGACGTGCTAG`: “fitted relative affinity” 0.072 z-score.
`GACGATATAAGACTGGAGACGTGCTAG`: “fitted relative affinity” -0.0248 z-score.
`TCAACTTTGCTCTGTGCGACTGTGCTA` — result for “fitted relative affinity”: -0.387 z-score.
For `TTTGATTTCGGGACTGGATTAGTGCTA`, “fitted relative affinity” read 1.86 z-score.
Under “fitted relative affinity”, `TACTGTCTGTTTCCTCTTTCTGTGCTA` is recorded as 3.41 z-score.
For `GACGGACTGCCACTGCTGACGTGCTAG`, “fitted relative affinity” read -0.866 z-score.
`TCACCTGTACATCTATGACTGTGCTAG`: “fitted relative affinity” 0.177 z-score.
`TTAGGAGTGCTTCTCCTTTAGTGCTAG`: “fitted relative affinity” -0.0511 z-score.
`TCAACAATGGCTTTGCCACTGTGCTAG`: “fitted relative affinity” -0.856 z-score.

Series 3
Target: Hepatocyte nuclear factor 3-alpha (Foxa1, Mus musculus, UniProt P35582, residues 1-468, full length assumed)
Method: EMSA with sequencing
Molecule type: double-stranded DNA, one strand shown
Matrix: in vitro
Tested at: 10 and 20 nM
Setting: whole designed probe, mean of two concentrations, ends assumed
Reference: negative control set to 0
Reading: higher = stronger binding
Constant ends, left off below: GTGAGCGGTGCCCATTGATGGGGAAC … TTTCACTGGGATCGTGGGGAC
Construct (chain): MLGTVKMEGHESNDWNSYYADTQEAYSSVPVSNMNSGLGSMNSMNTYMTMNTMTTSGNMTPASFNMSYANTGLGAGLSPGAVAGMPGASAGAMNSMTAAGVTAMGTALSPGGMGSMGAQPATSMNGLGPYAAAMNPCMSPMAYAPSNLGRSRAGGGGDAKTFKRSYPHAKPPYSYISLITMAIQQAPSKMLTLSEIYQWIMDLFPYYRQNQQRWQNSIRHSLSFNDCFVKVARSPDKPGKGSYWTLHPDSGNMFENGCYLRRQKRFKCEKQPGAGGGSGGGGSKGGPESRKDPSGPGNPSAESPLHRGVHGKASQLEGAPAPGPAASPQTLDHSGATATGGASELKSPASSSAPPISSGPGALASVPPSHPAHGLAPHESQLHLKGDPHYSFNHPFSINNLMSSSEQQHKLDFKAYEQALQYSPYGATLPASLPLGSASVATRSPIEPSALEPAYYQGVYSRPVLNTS
Under “normalised bound fraction”, `CTTTTTGGGGTGATGAAAATAATCTAAAATTGACTGTGGTGATTTCAGAGCTCTCAGTATGCTAAAAACCATGGACTTATCCCCTTAGAAAAAGTAATCTAAGAGTTATGAAAAAGAAAAAAAAAGACGTTTTAATTTCTATCACTGAGTGTGCACATGTTTTTAAAAAGTTTTTATTACTATAAACCAACCA` is recorded as -0.0155 ratio.
Under “normalised bound fraction”, `ATGAAGGGCTGCCAGTGTAATTTGAACCTCAAATAAACAACAGATAAAACTGTAGTATAAGTATGTCATTGCACAACCCATATACGATCTTTTTGTTTGCCTAATCTGGCAAAGATATTGACTTAACACACACTAATCTGTTGACAGGTAGGTGAAATATTTGAACTTCTACGTTGCTTCTCTAATCCTGTCC` is recorded as 0.389 ratio.
`ATTTATAAAAAGAGGAAATTATTCATGCCATCAGCACTCCCCATCAATAACAGGAGGAAACCTAACTATCTCATTACCCCATCACACTGTGTGCAATCTGAACTGCCCGTTGTTGACAATAAATATTTGATAAGTGAGGAAACAGGAAGGATAAACCAAGGGTGCAGAGTGGAGCTGCACAGTTGCCAGGAGA`: “normalised bound fraction” 0.115 ratio.
`GTAACTGTGAGATTTCTGAATTTACAACCTCCCTACAGGAAGTACCAGGTGGCCACGAAAGGCAGCATGGTCCCCATCTCTAATTAAGCTAATGTAAACAAGTGCCACAAGATGGCGCCAAACCACAGATGAAACTGACGCCAATTTGGATTCTTTGGGTGGATGGATCTCCCAGAACTTCCAGCTGGCTAGA` — result for “normalised bound fraction”: 0.466 ratio.
Under “normalised bound fraction”, `CAATAAAACATTAAAAGATGCTGTTTCCCTATTTATGAAAGTGCTTTAAGTTTCTTAGTGTTGTGAAGGGATTTTTTTTTTTTTCGGACAAAGTAATCTGGGTTCTCAAGATCCATTTCTAAAATTTTATTTCAAGGAGGAGATGAGAAATGTATGCTTAAAGAAACTGCTGGACACTATTAAAACTGGGATG` is recorded as -0.0373 ratio.

Series 4
Target: Fragile X messenger ribonucleoprotein 1, C-terminal low-complexity region (Fmr1, Mus musculus, UniProt P35922)
Method: RNA Bind-n-Seq
Molecule type: RNA
Matrix: in vitro
Tested at: 200 nM
Setting: whole 134-nt RNA, ends assumed
Together with: 150 mM KCl
Reference: input library
Reading: higher = stronger binding
Constant ends, left off below: GGGAGUUCUACAGUCCGACGAUC … UGGAAUUCUCGGGUGUCAAGG
`UGGCCCUGGUGGCAUGCGGGGAGGAAGAGGUGGCCUCAUGGAUCGUGGUGGUCCCGGUGGAAUGUUCAGAGGUGGCCGUUGUGGAGACAG` gave a log2 enrichment of -0.0981.
With `AGUCCUGUGCUACACAUCGUAUGUACCGAAUCGGGUGGGAAAAAGGGAAAAAAAGGGAAAGUAUUAUGUUACGCCGUUCGGAUCUGCACU` the log2 enrichment was 0.249.
For `CACAGACAACACGCACCCACACAGACACAGAGGGAAGGGGUUGGGAUCGGGACAGGGUGCACAGCAGGGCGGGGUAGGACCCCAGCCCCU`, the log2 enrichment was 1.19.
For `UUGGACUUGGAGCAUCUGCUCAGUGAGUCUCCAGAAGGAAGUCCCUUCCGAGAUAUGGAUGAUGGAAGUGAUUCCCUUGGGGUGGGAUUG`, the log2 enrichment was -1.92.
With `GCAGGAAGUAAAAACAAAUGGAAAUGCUUCGGAUAGUGGCAGGGGUGGGGGUUGCUAAGGAAAGGGUGGGAUGGGAGUGGGUAAAGAAAA` the log2 enrichment was 0.0594.
With `CUCAAGUCCUGUGCUACACAUCGUAUGUACCGAAUCGGAGGGGAGGGGAGGGGAAAGUAUUAUGUUACGCCGUUCGGAUCUGCACUUCCA` the log2 enrichment was 1.05.
The log2 enrichment of `CUCAAGUCCUGUGCUACACAUCGUAUGUACCGAAUCGGAGGUUUGGAAAAAGGAAAGUAUUAUGUUACGCCGUUCGGAUCUGCACUUCCA` is reported as -0.482.
For `CCUCAAGUCCUGUGCUACACAUCGUAUGUACCGAAUCGGGCGGCGGGGCGGGGAAAGUAUUAUGUUACGCCGUUCGGAUCUGCACUUCCA`, the log2 enrichment was 1.11.
`GUCCUGUGCUACACAUCGUAUGUACCGAAUCGGUUUUUUUGGUUUUUUUGGUUUUUGGAAAGUAUUAUGUUACGCCGUUCGGAUCUGCAC` gave a log2 enrichment of -0.701.
